{"data": "Measured values of several laboratories", "note": "Compare with care: the assays were run in different laboratories. “And” joins repeats or separate records; there may be more than shown. ± gives the spread as reported."}
{"SMILES": "O=Cc1ccc(CO)n1Cc1ccc(O)cc1", "test": "ABTS radical", "setting": "300 µg/mL", "measurement": "radical scavenging", "result": "83.8 ± 2.28%"}
{"SMILES": "CN1CCCNC(=O)c2cccc(c2)C(=O)NCCCN(C)CCCNc2cccc3c2C(=O)c2cccc(c2C3=O)NCCC1", "test system": "KSN/Slc nude mice, SAS xenograft", "setting": "dose not given, day 6, 144 h", "measurement": "tumour volume", "result": "180 mm3 and 181 mm3 and 307 mm3 and 178 mm3"}
{"SMILES": "COc1cc2nc(N3CCN(C(=O)C4CCC5(CCC5)O4)CC3)nc(N)c2cc1OC (stereo not shown)", "test": "blood pressure", "test system": "spontaneously hypertensive rat, male", "setting": "oral, 3 mg/kg", "measurement": "time to maximum BP lowering", "result": "15 min"}
{"SMILES": "O=C(CCO)c1ccc(O)cc1", "test": "ABTS radical", "setting": "300 µg/mL", "measurement": "radical scavenging", "result": "42.2 ± 1.3%"}
{"SMILES": "COCCNCCOc1cc(C)cc(C(C)C)c1", "test": "locomotor activity in dark", "test system": "Danio rerio larvae, 7 dpf, well of 10 larvae", "setting": "10 µM, minute 1, dark", "measurement": "third-quartile larval motion", "result": "7.3 ± 0.8 pixels/frame"}
{"SMILES": "CC(C)OC(=O)[C@H](CO)NCc1cc(Cl)c(OCc2cccc(-c3ccccc3)c2Br)cc1OCc1cccnc1", "test system": "hPD-L1 MC-38 tumour, humanised hPD-1 C57BL/6 mouse", "setting": "oral, 2.5 mg/kg × 21, day 20", "measurement": "tumour volume", "result": "1770 ± 919 mm³"}
{"SMILES": "COc1ccc(CCc2cc(OC)c(O)c(OC)c2)cc1OC", "test": "Oil Red O", "test system": "3T3-L1, mouse", "setting": "5 µM, day 8", "how to read": "reference: vehicle", "measurement": "lipid accumulation", "result": "53.6 ± 4.22%"}
{"SMILES": "CC(=O)[O-].O.O.O.O.[Mn+2].[O-]c1ccc(Br)cc1C=NCCN1CCOCC1", "test": "DPPH radical scavenging", "setting": "40 µM", "measurement": "inhibition", "result": "11.1%"}
{"SMILES": "COc1ccccc1-c1ccncc1C(=O)Nc1nnc(OCc2ccc(Cl)cc2)s1", "test system": "Brca1 Δ11/Δ11 Polq-/- MEFs, mouse", "setting": "20 µM", "measurement": "colony survival", "result": "14.9% and 12.1% and 6%"}
{"SMILES": "NC[C@@H](C(=O)Nc1ccc(-c2cn[nH]c2)cc1)c1ccccc1", "test": "tonometry", "test system": "NZW rabbit, magnetic bead-induced ocular hypertension", "setting": "ocular, 0.03%, 2 h", "measurement": "IOP", "result": "34.3 mmHg"}
{"SMILES": "O=C(NCC1OC2CCC=CCCC2O1)c1ccc(F)nc1 (stereo not shown)", "test": "IEDDA cycloaddition, substrate, stopped-flow spectrophotometry", "test system": "water/methanol 45:55", "setting": "0.25 mM, 298 K, together with: methyltetrazine-NHS 0.05 mM", "measurement": "observed rate constant kobs", "result": "2.57 ± 0.00526 s⁻¹"}
{"SMILES": "COc1c(Cl)cccc1Nc1c(-c2ccncc2C#C[C@@]2(C)CCCN2C(=O)/C=C/CN(C)C)[nH]c2c1C(=O)NCC2", "test system": "female NOD/SCID mouse, PDX", "setting": "25 mg/kg once daily, 21 days, HER2 YVMA", "measurement": "tumour growth inhibition", "result": "118%"}
{"SMILES": "CN1CCC[C@]1(C)/C=C/S(=O)(=O)NC(=O)Nc1c2c(cc3c1CCC3)CCC2", "test system": "human, whole blood ex vivo", "setting": "50 mg twice daily, day 14, 36 h, multiple ascending dose, together with: LPS and ATP", "measurement": "IL-1β inhibition", "result": "91.5%"}
{"SMILES": "Cc1cccc(C)c1CNc1cc(C(=O)N2CCC2)cn2c(C)c(C)nc12", "test": "gastric acid secretion", "test system": "dog Heidenhain pouch", "setting": "oral, 1 mg/kg, 9 h after dosing, together with: histamine", "measurement": "inhibition", "result": "100%"}
{"SMILES": "Cc1ccc(C)c(OCC(O)CN2CCN(c3cc(Cl)ccc3C)CC2)c1 (stereo not shown)", "test": "locomotor activity in dark", "test system": "Danio rerio larvae, 7 dpf, well of 10 larvae", "setting": "10 µM, minute 1, dark", "measurement": "third-quartile larval motion", "result": "0.2 ± 0.2 pixels/frame"}
{"SMILES": "CCCCCCCCCCCCCCCC(=O)OCC(CSC[C@H](N)C(=O)N[C@@H](CO)C(=O)N[C@@H](CCCCN)C(=O)N[C@@H](CCCCN)C(=O)N[C@@H](CCCCN)C(=O)N[C@@H](CCCCN)C(=O)NCCCCCC(=O)N[C@@H](CCCCN)C(=O)N[C@@H](CC(C)C)C(=O)N[C@H](C(=O)N[C@@H](Cc1ccccc1)C(=O)N[C@@H](Cc1ccccc1)C(=O)N[C@@H](Cc1ccc2ccccc2c1)C(=O)O)C(C)C)OC(=O)CCCCCCCCCCCCCCC (stereo partly shown)", "test": "thioflavin S staining", "test system": "APP/PS1 transgenic mouse, cortex", "setting": "intracortical injection, dose not given, 5 d", "measurement": "Aβ plaque density", "result": "89.4 /mm2 and 80.8 /mm2 and 88 /mm2 and 84.8 /mm2"}
{"SMILES": "Cc1ccc(NC(=O)CCN2CCCCCC2)cc1C", "test": "locomotor activity in dark", "test system": "Danio rerio larvae, 7 dpf, well of 10 larvae", "setting": "10 µM, minute 1, dark", "measurement": "third-quartile larval motion", "result": "1.3 ± 0.4 pixels/frame"}
{"SMILES": "COc1ccccc1C1NCCc2cc(O)c(O)cc21 (stereo not shown)", "test": "DPPH scavenging, absorbance", "setting": "30 min, dark", "measurement": "IC50", "result": "27.4 µM"}
{"SMILES": "OC(COCC1COc2ccccc2O1)CN1CCN(c2ccccc2)CC1 (stereo not shown)", "test": "locomotor activity in dark", "test system": "Danio rerio larvae, 7 dpf, well of 10 larvae", "setting": "10 µM, minute 7, dark", "measurement": "third-quartile larval motion", "result": "2 ± 0.8 pixels/frame"}
{"SMILES": "CC(CCC(=O)NCc1ccc(C(=O)NO)cc1)C1CCC2C3C(O)CC4CC(O)CCC4(C)C3CCC12C (stereo not shown)", "test": "item: TUDCA", "test system": "PCK rat (Pkhd1 mutant), peripheral blood", "setting": "oral gavage, dose not given, 5 months", "how to read": "reference: total bile acids", "measurement": "relative abundance", "result": "4.77%"}
{"SMILES": "C=CC(=O)N1CC2C(=O)N(CCN(C)C)c3c(c4cc(Cl)c(-c5c(O)cccc5F)nc4n(-c4c(C)ccnc4C(C)C)c3=O)N2CC1C (stereo not shown)", "test": "immunohistochemistry", "test system": "BALB/c nude mouse, H358-Luc intracranial tumour, brain tissue", "setting": "100 mg/kg, 21 days", "measurement": "Ki-67 level", "result": "decreased"}
{"SMILES": "COC1CN([C@H]2CC[C@H]([C@@]3(C)Oc4c(Cl)cc(C(=O)NCc5c(SC)cc(C)[nH]c5=O)c(C)c4O3)CC2)C1", "test": "RNA-seq, item: NPL", "test system": "human, whole blood", "setting": "dose not given, 24 h", "how to read": "reference: pretreatment baseline", "measurement": "log2 fold change", "result": 1.26}
{"SMILES": "CCOC(=O)NN", "test": "hydrazine ligation kinetics, absorbance", "setting": "concentration not given, 10 s, together with: 2-formylphenylboronic acid", "measurement": "normalised absorbance", "result": 0.414}
{"SMILES": "CC[C@H](C)[C@@H](C(=O)N[C@@H](CC(C)C)C(=O)N[C@@H](CO)C(=O)N[C@@H](CO)C(=O)N[C@H](C(=O)N[C@@H](CCC(=O)O)C(=O)N[C@H](C(=O)NCC(=O)N[C@@H](CO)C(=O)N[C@@H](CC(N)=O)C(=O)N[C@H](C(=O)N1C[C@H](O)C[C@H]1C(N)=O)[C@@H](C)O)C(C)C)[C@@H](C)O)N(C)C(=O)[C@H](C)NC(=O)CN(C)C(=O)[C@H](Cc1ccccc1)NC(=O)[C@H](CO)NC(=O)[C@H](CO)NC(=O)[C@H](CCCNC(=N)N)NC(=O)[C@H](CCC(N)=O)NC(=O)[C@H](CC(C)C)NC(=O)[C@H](Cc1ccccc1)NC(=O)[C@H](CC(=O)O)NC(=O)[C@H](C)NC(=O)[C@H](CC(C)C)NC(=O)[C@H](CCCNC(=N)N)NC(=O)[C@H](CCC(N)=O)NC(=O)[C@@H](NC(=O)[C@H](C)NC(=O)[C@@H]1CSSC[C@H](NC(=O)[C@H](CCCNC(=N)N)NC(=O)CC[C@H](NC(=O)CCCCCCCCCCCCCCCCCCC(=O)O)C(=O)O)C(=O)N[C@@H](CC(N)=O)C(=O)N[C@@H]([C@@H](C)O)C(=O)N[C@@H](C)C(=O)N[C@@H]([C@@H](C)O)C(=O)N1)[C@@H](C)O", "test system": "male Sprague-Dawley rats", "setting": "subcutaneous, 30 nmol/kg single dose, 96 h", "measurement": "body weight loss", "result": "10.8 ± 0.4%"}
{"SMILES": "COc1ccc(N2CCN(CC(O)COc3ccc4ccccc4c3)CC2)cc1 (stereo not shown)", "test": "locomotor activity in dark", "test system": "Danio rerio larvae, 7 dpf, well of 10 larvae", "setting": "10 µM, minute 7, dark", "measurement": "third-quartile larval motion", "result": "4.8 ± 1.1 pixels/frame"}
{"SMILES": "NNC(=O)Cc1ccccc1", "test": "hydrazine ligation kinetics, absorbance", "setting": "concentration not given, 45 s, together with: 2-formylphenylboronic acid", "measurement": "normalised absorbance", "result": 0.742}
{"SMILES": "COc1ccc(NC(=O)c2ccc3[nH]c(-c4ccc(N(C)C)cc4)nc3c2)cn1", "test system": "CT26, BALB/c nude mice, subcutaneous graft", "setting": "dose not given, day 4", "measurement": "tumour volume", "result": "125 mm3 and 381 mm3 and 273 mm3 and 242 mm3 and 275 mm3"}
{"SMILES": "COc1cnc2cccc(N3CCc4c(cc(Cn5ccnc5)cc4-c4cn(C)nc4C(F)(F)F)C3=O)c2c1", "test system": "BALB/c nude mice, MV4-11 xenograft", "setting": "intraperitoneal, 100 mg/kg, day 24", "measurement": "tumour volume", "result": "200 mm3 and 77 mm3 and 178 mm3 and 135 mm3 and 106 mm3 and 167 mm3"}
{"SMILES": "Cc1ccc(S(=O)(=O)NN)cc1", "test": "hydrazine ligation kinetics, absorbance", "setting": "concentration not given, 35 s, together with: 2-formylphenylboronic acid", "measurement": "normalised absorbance", "result": 0.853}
{"SMILES": "CCOC(=O)CCCCC1NCCc2cc(O)c(O)cc21 (stereo not shown)", "test": "DPPH scavenging, absorbance", "setting": "30 min, dark", "measurement": "IC50", "result": "19.6 µM"}
{"SMILES": "COc1cc(O)ccc1CCC(c1ccc(O)cc1)c1cc2c(c(C)c1O)OC(c1ccc(O)cc1)CC2 (mixture of isomers)", "test": "item: 5-HETE", "test system": "human whole blood", "setting": "3 µM, together with: Escherichia coli", "measurement": "amount", "result": "2220 ± 435 pg/mL blood"}
{"note": "Excerpt of the above:"}
{"SMILES": "Cc1ccc(S(=O)(=O)NN)cc1", "test": "hydrazine ligation kinetics, absorbance", "setting": "concentration not given, 35 s, together with: 2-formylphenylboronic acid", "measurement": "normalised absorbance", "result": 0.853}
{"SMILES": "CN1CCCNC(=O)c2cccc(c2)C(=O)NCCCN(C)CCCNc2cccc3c2C(=O)c2cccc(c2C3=O)NCCC1", "test system": "KSN/Slc nude mice, SAS xenograft", "setting": "dose not given, day 6, 144 h", "measurement": "tumour volume", "result": "180 mm3 and 181 mm3 and 307 mm3 and 178 mm3"}
{"SMILES": "COc1cc2nc(N3CCN(C(=O)C4CCC5(CCC5)O4)CC3)nc(N)c2cc1OC (stereo not shown)", "test": "blood pressure", "test system": "spontaneously hypertensive rat, male", "setting": "oral, 3 mg/kg", "measurement": "time to maximum BP lowering", "result": "15 min"}
